Assay results pooled from the literature.
Each line is one published result; not all experiments were run side by side. “And” joins repeats or separate records; there may be more than shown. Numbers after ± are the reported error.

SMILES	cell line	test	test system	conditions	how to read	measurement	value
Cn1cc(-c2ccc(-c3cncc(Cl)c3N3CCC4(CCNC4=O)CC3)cc2)cn1	COLO 205	gene expression, microarray, refers to: DDR1 mRNA		concentration not given, 2 h	relative to: untreated cells	log2 fold change	2.23
CC(=O)O[C@@]12CO[C@@H]1C[C@H](O)[C@@]1(C)C(=O)[C@H](O)C3=C(C)[C@@H](OC(=O)[C@H](O)[C@@H](NC(=O)OC(C)(C)C)c4ccccc4)C[C@@](O)([C@@H](OC(=O)c4ccccc4)[C@H]21)C3(C)C	compound-resistant VCaP-AI	trypan blue exclusion		0.002 µM, 72 h		inhibition of cell proliferation	< 20%
Cn1c(Nc2nc3ccc(C(F)(F)F)cc3s2)nc2cc(C(=O)NCCOCCO)ccc21	SH-SY5Y	RNA-seq, refers to: CXCL12 mRNA		5 µM, 5 h	relative to: untreated cells	fold change	2.13
C#C[C@@]1(O)[C@@H](CO)O[C@@H](n2cc(Cl)c3c(N)ncnc32)[C@@H]1O	786-0	cell growth, SRB				TGI	1.34 µM and 1.31 µM
COC(=O)/C=C/C(=O)N(O)CCCCNCc1ccc(COC(=O)Nc2cccc3ccccc23)cc1	OCI-Ly1			1 µM, 120 h		viability	145%
CC(C)C[C@H](NP(=O)(O)O[C@@H]1O[C@@H](C)[C@H](O)[C@@H](O)[C@H]1O)C(=O)N[C@@H](Cc1c[nH]c2ccccc12)C(=O)O	SH-SY5Y BACE1-overexpressing	ELISA	supernatant	10 µM, 72 h	relative to: vehicle	Aβ40 level	~26%
CCn1c(=O)/c(=C2\Sc3cc(Cl)ccc3N2C)s/c1=C\c1scc[n+]1Cc1ccccc1.[Cl-]	iPSC-derived cardiomyocytes	concentration-response fit		concentration not given	relative to: vehicle	fitted bottom MyBP-C level	0%
CCn1cc(-c2cc(Cn3ccnc3)cc3c2CCN([C@H](c2cc(OC)ccn2)C2CC2)C3=O)c(C(F)(F)F)n1	KG-1	cell growth, inhibitor		120 h		EC50	> 30 µM
C=C1C(=O)O[C@@H](CCC)[C@@H]1C(=O)O (racemic)	OCI-Ly1			0.1 µM, 120 h		viability	185%
FC(F)(F)Oc1ccc(CNc2ccc3c[nH]nc3c2)cc1	sample A patient iPSC-derived NPCs	MTS		10 µM, 24 h	relative to: vehicle	viability	116 ± 7.68%
O=C(COc1cccc2c1C(=O)N(C1CCC(=O)NC1=O)C2=O)NCCOCCOCCNS(=O)(=O)Nc1cccc(-c2cn3cc(C(=O)NC4CCC4)ccc3n2)c1 (stereo not drawn)	MV4-11	TMT proteomics, refers to: ALDOA	whole proteome	10 µM, 4 h	relative to: DMSO	log2 fold change	-0.057
Cn1cc(Nc2nccc(-c3ccc4c(c3)CN(C3COC3)CC[C@H]4NC(=O)c3cn(C(C)(C)C)nn3)n2)cn1	mouse splenic B cells	refers to: Renin-Angiotensin signalling		30 mg/kg, IgD-activated in vivo	relative to: vehicle, direction not given	pathway activation z-score	3.74
NC(=O)[C@H](CCCN=C(N)CF)NC(=O)c1ccccc1	OCI-Ly1			0.5 µM, 120 h		viability	118%
O=C(Nc1ccccc1OS(=O)(=O)c1ccc(F)cc1)c1ccc2ncccc2c1	P2X7R-transfected MCF7	propidium iodide flow cytometry		5 µM, 18 h, added: Bz-ATP	relative to: control	dead cells	25%
Cc1c(C(=O)O)ccc2c3n(nc12)[C@@H]1[C@H](C3)N(CC2CC2)[C@@]2(C(=O)Nc3cc(Cl)ccc32)[C@H]1c1cccc(Cl)c1F	Rh18	cell growth, alamarBlue		unbound, 4.5% of total		IC50	0.00045 µM
CC(C)N(CCCNC(=O)Nc1ccc(C(C)(C)C)cc1)C[C@H]1O[C@@H](n2cc(Br)c3c(N)ncnc32)[C@H](O)[C@@H]1O	OCI-Ly1			0.1 µM, 120 h		viability	145%
O=C(/C=C/C=C/C=C/C1CCCCC1)NC1=C[C@@](O)(/C=C/C=C/C=C/C(=O)NC2=C(O)CCC2=O)[C@@H]2O[C@@H]2C1=O	NCI-H292	cell growth, CellTiter-Glo		78 h		GI50	14.8 µM
CC(C)(C)OC(=O)Nc1ccc(-c2cc(C(=O)NCCCCCCC(=O)NO)no2)cc1	OCI-Ly1			0.5 µM, 120 h		viability	35%
COc1ccc(-n2nc(C(C)=O)s/c2=N\N=C(/C)c2ccc(NC(=O)c3ccccc3)cc2)cc1	MCF7			0.312 µM		toxicity	95%
Nc1ccccc1NC(=O)c1ccc(CNC(=O)OCc2cccnc2)cc1	OCI-Ly1			1 µM, 120 h		viability	89.7%
C=C1C(=O)OC2C1CC1OC2C(C)CCC/C(C)=C\CCC1(C)O (stereo not drawn)	iPSC-derived cardiomyocytes	concentration-response fit		concentration not given	relative to: vehicle	fitted top MyBP-C level	66%
